# Assay results gathered from unrelated publications.
# Each line is one published result; not all experiments were run side by side. ± gives the spread as reported.
# Cell line: U-251
SMILES,assay,setting,scale,quantity,value
O=C1NC(c2ccccc2)(c2ccccc2)C(=O)N1Cc1cn(-c2c3ccccc3nc3ccccc23)nn1,,"10 µM, CNS cancer cell line, NCI60",,growth percentage,91.2%
CCCN1CCN(c2ccc3[nH]c(-c4ccc5[nH]c(-c6cc(OC)c(OC)c(OC)c6)nc5c4)nc3c2)CC1,SRB,"10 µM, 48 h",,growth percent,66.3%
Cc1cc(=O)[nH]c(=O)n1Cc1cn(-c2c3ccccc3nc3ccccc23)nn1,,"10 µM, CNS cancer cell line, NCI60",,growth percentage,88.3%
CCOc1ccc(-c2nc3cc(-c4nc5cc(N6CCN(C)CC6)ccc5[nH]4)ccc3[nH]2)cc1OCC,SRB,"10 µM, 48 h",,growth percent,4.64%
Cn1cncc1C1=CN(c2ncnc3[nH]cnc23)CCS1,,CNS cancer,,TGI,> 200 µM
Cc1cc(-c2ccccc2)n(-c2nc(-c3ccc(Cl)cc3)c3c(NC(=O)c4ccccc4)nnc-3[nH]2)n1,SRB,"10 µM, NCI60 single-dose screen",reference: untreated,cell growth,93.1%
CCCC(CCC)C(=O)OCc1cn(-c2c3ccccc3nc3ccccc23)nn1,,"10 µM, CNS cancer cell line, NCI60",,growth percentage,92.7%
O=C(Nc1nnc2n3c(nc(-c4ccc(Cl)cc4)c1-2)SCC3=O)c1ccccc1,SRB,"10 µM, NCI60 single-dose screen",reference: untreated,cell growth,109%
CCN(CC)c1ccc(C=NNC(=O)CSc2nc3ccccc3c(=O)n2Cc2ccc(S(N)(=O)=O)cc2)c(O)c1,NCI five-dose screen,,,TGI,> 100 µM
O=C(Nc1nnc2[nH]c(=S)[nH]c(-c3ccc(Cl)cc3)c1-2)c1ccccc1,SRB,"10 µM, NCI60 single-dose screen",reference: untreated,cell growth,107%
C=CC(=O)Nc1cc(Nc2nccc(-c3cn(C)c4ccccc34)n2)c(OC)cc1N(C)CCN(C)C,qRT-PCR,"30 µM, 24 h",reference: untreated,MAPK1 mRNA level,~1.5 fold
CCCN1CCN(c2ccc3[nH]c(-c4ccc5[nH]c(-c6ccc(C(F)(F)F)cc6)nc5c4)nc3c2)CC1,SRB,"10 µM, 48 h",,growth percent,-82.2%
CCOC(=O)CSc1nc(-c2ccc(Cl)cc2)c2c(NC(=O)c3ccccc3)nnc-2[nH]1,SRB,"10 µM, NCI60 single-dose screen",reference: untreated,cell growth,102%
CCCCN1CCN(c2ccc3[nH]c(-c4ccc5[nH]c(-c6ccc(C(F)(F)F)cc6)nc5c4)nc3c2)CC1,SRB,"10 µM, 48 h",,growth percent,-86.6%
O=c1ccn(Cc2cn(-c3c4ccccc4nc4ccccc34)nn2)c(=O)[nH]1,,"10 µM, CNS cancer cell line, NCI60",,growth percentage,89.5%
Cc1n[nH]c2nc(-c3ccc(Cl)cc3)c3c(NC(=O)c4ccccc4)nnc-3n12,SRB,"10 µM, NCI60 single-dose screen",reference: untreated,cell growth,103%
CCCN1CCN(c2ccc3[nH]c(-c4ccc5[nH]c(-c6ccc(OCC)c(OCC)c6)nc5c4)nc3c2)CC1,SRB,"10 µM, 48 h",,growth percent,-71.9%
Cc1cc(C)n(-c2nc(-c3ccc(Cl)cc3)c3c(NC(=O)c4ccccc4)nnc-3[nH]2)n1,SRB,"10 µM, NCI60 single-dose screen",reference: untreated,cell growth,87.9%
COc1ccc(OC)c(-c2nc3ccc(-c4nc5ccc(N6CCN(C)CC6)cc5[nH]4)cc3[nH]2)c1,SRB,"10 µM, 48 h",,growth percent,80.4%
COc1ccc(-c2ccc3ncc4c(c3c2)n([C@@H]2CCN(C)CC2(F)F)c(=O)n4C)cn1,immunofluorescence,"30 nM, 1 h after irradiation, together with: radiation",,RT-induced 53BP1 foci,75 ± 6.3%
O=C1NC(=NCc2cccs2)S/C1=C\c1ccc2ncccc2c1,MTS,NCI60 panel,,IC50,1.92 µM
C#C[C@@]1(O)[C@@H](CO)O[C@@H](n2ccc3c(N)ncnc32)[C@@H]1O,SRB,NCI-60 screen,,TGI,11.8 µM

# For quick reference, copied from above:
SMILES,assay,setting,scale,quantity,value
O=c1ccn(Cc2cn(-c3c4ccccc4nc4ccccc34)nn2)c(=O)[nH]1,,"10 µM, CNS cancer cell line, NCI60",,growth percentage,89.5%
COc1ccc(-c2ccc3ncc4c(c3c2)n([C@@H]2CCN(C)CC2(F)F)c(=O)n4C)cn1,immunofluorescence,"30 nM, 1 h after irradiation, together with: radiation",,RT-induced 53BP1 foci,75 ± 6.3%
CCCC(CCC)C(=O)OCc1cn(-c2c3ccccc3nc3ccccc23)nn1,,"10 µM, CNS cancer cell line, NCI60",,growth percentage,92.7%
